Measurements collected from several papers.
Protocols differ between the studies behind these lines. ± gives the spread as reported.

| SMILES | test | system | conditions | scale | measurement | value |
| --- | --- | --- | --- | --- | --- | --- |
| COc1ccc2c(c1)C(C)(C)C(/C=C/C1=C(Oc3ccc(C(=O)NCCCCOc4cc(CN(Cc5ccccn5)Cc5ccccn5)cc(CN(Cc5ccccn5)Cc5ccccn5)c4)cc3)C(=C/C=C3/N(CCCCS(=O)(=O)[O-])c4ccc(OC)cc4C3(C)C)CCC1)=[N+]2CCCCS(=O)(=O)[O-].O=[N+]([O-])O.O=[N+]([O-])[O-].O=[N+]([O-])[O-].O=[N+]([O-])[O-].[Zn+2].[Zn+2] | photoacoustic imaging | BALB/c mouse LPS-induced sterile myositis, inflamed muscle | intravenous, dose not given, 12 h | baseline: post- over pre-injection | signal-to-background ratio | 1.07 ± 0.11 |
| CC(C)C[C@H](NC=O)C(=O)N[C@@H](C)C(=O)N[C@@H](C)C(=O)N[C@@H](CC(=O)O)C(=O)N[C@@H](CC(C)C)C(=O)N[C@@H](CC(C)C)C(=O)N[C@@H](C)C(=O)N[C@@H](C)C(=O)N[C@@H](CC(C)C)C(=O)NCC(=O)N[C@@H](CC(=O)O)C(=O)N[C@@H](CC(C)C)C(=O)N[C@@H](C)C(=O)N[C@@H](CCCCN)C(=O)N[C@@H](Cc1c[nH]c2ccccc12)C(=O)N[C@@H](CC(C)C)C(=O)N[C@@H](CC(C)C)C(=O)N[C@@H](CC(=O)O)C(=O)N[C@@H](C)C(=O)N[C@@H](CC(C)C)C(=O)N[C@@H](C)C(=O)N[C@@H](CCCCN)C(=O)N[C@@H](C)C(=O)N[C@@H](C)C(=O)N[C@@H](CCCCN)C(=O)N[C@@H](CCCCN)C(=O)O (racemic) | – | POPC vesicles | – | – | static quenching constant | 80 M⁻¹ |
| NCCCC[C@H](NC(=O)CNC(=O)CNC(=O)[C@H](CCCCN)NC(=O)CNC(=O)CNC(=O)CNC(=O)[C@H](CCCCN)NC(=O)CNC(=O)CNC(=O)[C@H](CCCCN)NC(=O)CNC(=O)CNC(=O)CNC(=O)[C@H](CCCCN)NC(=O)CNC(=O)CNC(=O)[C@H](CCCCN)NC(=O)CNC(=O)CNC(=O)CNC(=O)[C@H](CCCCN)NC(=O)CNC(=O)CNC(=O)[C@H](CCCCN)NC(=O)[C@H](CO)NC(=O)[C@H](Cc1ccc(O)cc1)NC(=O)CNC(=O)CNC(=O)CN)C(=O)NCC(=O)O | – | Aβ(1-40) fibrils | 1 h, room temperature | baseline: 1 M NaCl over PBS | binding ratio | 0.07 |
| CC(C)C[C@H]1NC(=O)[C@H](NC(=O)CN)CSSC[C@H]2NC(=O)[C@H]3CSSC[C@H](C(=O)N[C@H](CC(N)=O)C(=O)N[C@H](Cc4ccccc4)C(=O)N[C@H](CO)C(=O)N[C@H](Cc4ccccc4)C(N)=O)NC(=O)[C@@H](CC(C)C)NC(=O)[C@@H](CCCCN)NC(=O)[C@@H](Cc4ccccc4)NC(=O)[C@@H](CC(C)C)NC(=O)[C@@H](CCCCN)NC(=O)[C@@H](CO)NC(=O)[C@@H](CSSC[C@@H](NC(=O)[C@@H](CCCCN)NC(=O)[C@@H](Cc4c[nH]c5ccccc45)NC(=O)[C@@H](Cc4c[nH]c5ccccc45)NC(=O)[C@@H](Cc4ccccc4)NC(=O)[C@@H](CCC(=O)O)NC1=O)C(=O)N[C@H](CC(N)=O)C(=O)N1CCC[C@@H]1C(=O)N[C@H](CC(N)=O)C(=O)N[C@H](CC(=O)O)C(=O)N[C@H](CC(=O)O)C(=O)N[C@H](CCCCN)C(=O)N3)NC(=O)[C@@H](CCCCN)NC(=O)[C@@H](CC(C)C)NC(=O)[C@@H](CCCCN)NC(=O)[C@H]1CCCN1C(=O)[C@@H](CCCNC(=N)N)NC2=O | WGA staining histology | D2.mdx mouse, skeletal muscle | dose not given, six weeks, treatment | – | fibrosis | no effect |
| C[C@@H](NC(=O)[C@@H](CCC(N)=O)NC(=O)[C@@H](C)NC(=O)[C@@H](CCCCN)NC(=O)[C@@H](CCC(N)=O)NC(=O)[C@@H](C)NC(=O)[C@@H](CCCCN)NC(=O)[C@@H](CCC(N)=O)NC(=O)[C@@H](C)NC(=O)[C@@H](CCC(N)=O)NC(=O)[C@@H](CCCCN)NC(=O)[C@@H](C)NC(=O)[C@@H](CCC(N)=O)NC(=O)[C@@H](CCCCN)NC(=O)[C@@H](C)NC(=O)[C@@H](CCC(N)=O)NC(=O)[C@@H](C)NC(=O)[C@@H](CCCCN)NC(=O)[C@@H](CCC(N)=O)NC(=O)[C@@H](C)NC(=O)[C@@H](CCCCN)NC(=O)[C@@H](CO)NC(=O)[C@@H](Cc1ccc(O)cc1)NC(=O)CNC(=O)CNC(=O)CN)C(=O)N[C@H](CCCCN)C(=O)N[C@H](CCC(N)=O)C(=O)N[C@H](C)C(=O)N[C@H](CCCCN)C(=O)N[C@H](CCC(N)=O)C(=O)O | binding | AA amyloid mouse liver homogenate | 1 h, room temperature | – | bound fraction | 92% |
| CCCCCCCCCCCCCCCC(=O)N[C@@H](CCC(=O)NCCOCCOCCC(=O)NCCOCCOCCC(=O)NCCCC[C@H](NC(=O)[C@H](CC(=O)O)NC(=O)[C@H](CC(C)C)NC(=O)[C@H](Cc1ccc(O)cc1)NC(=O)[C@H](CCCCN)NC(=O)[C@H](CO)NC(=O)[C@H](Cc1ccc(O)cc1)NC(=O)[C@H](CC(=O)O)NC(=O)[C@H](CO)NC(=O)[C@@H](NC(=O)[C@H](Cc1ccccc1)NC(=O)[C@@H](NC(=O)CNC(=O)[C@H](CCC(N)=O)NC(=O)[C@@H](CO)NC(=O)[C@@H](N)Cc1c[nH]cn1)[C@@H](C)O)[C@@H](C)O)C(=O)N[C@@H](CCCNC(=N)N)C(=O)N[C@@H](CCCNC(=N)N)C(=O)N[C@@H](C)C(=O)N[C@@H](CCC(N)=O)C(=O)N[C@@H](CC(=O)O)C(=O)N[C@@H](Cc1ccccc1)C(=O)N[C@H](C(=O)N[C@@H](CCC(N)=O)C(=O)N[C@@H](Cc1c[nH]c2ccccc12)C(=O)N[C@@H](CC(C)C)C(=O)N[C@@H](CC(C)C)C(=O)N[C@@H](CC(N)=O)C(=O)N[C@H](C(=O)NCC(=O)NCC(=O)N1CCC[C@H]1C(=O)N[C@@H](CO)C(=O)N[C@@H](CO)C(=O)NCC(=O)N[C@@H](C)C(=O)N1CCC[C@H]1C(=O)N1CCC[C@H]1C(=O)N1CCC[C@H]1C(=O)N[C@@H](CO)C(N)=O)[C@@H](C)O)C(C)C)C(=O)O | – | C57BL/6J mouse CCl4 model, liver | dose not given | – | Col1α level | decreased |
| CC(=O)N1CCC(NC(=O)C(N)Cc2c(C)cc(O)cc2C)c2cc(CN3CCc4ccccc4C3)ccc21 (stereo not shown) | warm water tail withdrawal | C57BL/6 mice | intraperitoneal, 10 mg/kg cumulative | – | duration of antinociception | 200 min |
| CCN(CCCCOc1ccc(CCC(=O)N2CCC(Cc3ccccc3)CC2)cc1OC)Cc1ccccc1 | Morris water maze | APP/PS1 transgenic mouse | dose not given | baseline: untreated model | escape latency | decreased |
| C=C(NC(=O)C(=C)NC(=O)c1csc(C2=NC3c4csc(n4)C4NC(=O)c5csc(n5)C(C(C)(O)C(C)O)NC(=O)C5CSC(=N5)C(=CC)NC(=O)C(C(C)O)NC(=O)c5csc(n5)C3(CC2)NC(=O)C(C)NC(=O)C(=C)NC(=O)C(=CC)NC(=O)C(C(C)CC)NC2C=Cc3c(C(C)O)cc(nc3C2O)C(=O)OC4C)n1)C(N)=O (stereo not shown) | protein synthesis, coupled transcription-translation, measured: luciferase | Escherichia coli S30 extract | 1 h, 37 °C | – | IC50 | 350 ± 40 nM |
| COC[C@@H](NC(C)=O)C(=O)NCc1ccc(OCc2ccc(Cl)cc2)cc1 | maximal electroshock seizure test | mouse | ip, time of peak effect | – | ED50 | 7.2 mg/kg |
| Cc1ccc(/C=C/C(=O)O)cc1-c1cc2c(cc1C)C(C)(C)CCC2(C)C | RNA sequencing, measured: Aurkb mRNA | rat, brain | dose not given, 24 h, single dose | baseline: vehicle | log2 fold change | 0.43 |
| Cc1cc(Nc2nc(C[C@@]3(C(=O)O)CCN(Cc4cccc(Cl)c4F)[C@H](C)C3)cc(C)c2F)[nH]n1 | – | mouse, IMR-32 neuroblastoma xenograft | oral, 5 mg/kg once daily | – | tumour growth inhibition | 90% |
| CC[C@H](C)[C@H](NC(=O)[C@@H](NC(=O)[C@H](CC(=O)O)NC(C)=O)[C@@H](C)O)C(=O)N[C@@H](CCCNC(=N)N)C(=O)N[C@@H](CC(C)C)C(=O)N[C@@H](CC(C)C)C(=O)N[C@@H](Cc1ccccc1)C(=O)N[C@@H](CCC(N)=O)C(=O)N[C@@H](CC(C)C)C(=O)N[C@@H](CCSC)C(=O)N[C@@H](CCCNC(=N)N)C(=O)N1CCC[C@H]1C(=O)N1CCC[C@H]1C(=O)N[C@@H](CC(N)=O)C(=O)N[C@@H](CCSC)C(=O)N[C@H](C(=O)N1CCC[C@H]1C(=O)N[C@@H](C)C(=O)N[C@H](C(=O)N[C@@H](CC(N)=O)C(=O)N[C@@H](C)C(N)=O)C(C)C)[C@@H](C)O | measured: HA-41 tetramer | antigen-experienced tetramer+ CD4 T cells, healthy adults, HLA-DRB1*0101 | dose not given | – | α4β7− CCR9− cells | 50% |

Excerpt of the above:
| SMILES | test | system | conditions | scale | measurement | value |
| --- | --- | --- | --- | --- | --- | --- |
| CC(C)C[C@H]1NC(=O)[C@H](NC(=O)CN)CSSC[C@H]2NC(=O)[C@H]3CSSC[C@H](C(=O)N[C@H](CC(N)=O)C(=O)N[C@H](Cc4ccccc4)C(=O)N[C@H](CO)C(=O)N[C@H](Cc4ccccc4)C(N)=O)NC(=O)[C@@H](CC(C)C)NC(=O)[C@@H](CCCCN)NC(=O)[C@@H](Cc4ccccc4)NC(=O)[C@@H](CC(C)C)NC(=O)[C@@H](CCCCN)NC(=O)[C@@H](CO)NC(=O)[C@@H](CSSC[C@@H](NC(=O)[C@@H](CCCCN)NC(=O)[C@@H](Cc4c[nH]c5ccccc45)NC(=O)[C@@H](Cc4c[nH]c5ccccc45)NC(=O)[C@@H](Cc4ccccc4)NC(=O)[C@@H](CCC(=O)O)NC1=O)C(=O)N[C@H](CC(N)=O)C(=O)N1CCC[C@@H]1C(=O)N[C@H](CC(N)=O)C(=O)N[C@H](CC(=O)O)C(=O)N[C@H](CC(=O)O)C(=O)N[C@H](CCCCN)C(=O)N3)NC(=O)[C@@H](CCCCN)NC(=O)[C@@H](CC(C)C)NC(=O)[C@@H](CCCCN)NC(=O)[C@H]1CCCN1C(=O)[C@@H](CCCNC(=N)N)NC2=O | WGA staining histology | D2.mdx mouse, skeletal muscle | dose not given, six weeks, treatment | – | fibrosis | no effect |
| NCCCC[C@H](NC(=O)CNC(=O)CNC(=O)[C@H](CCCCN)NC(=O)CNC(=O)CNC(=O)CNC(=O)[C@H](CCCCN)NC(=O)CNC(=O)CNC(=O)[C@H](CCCCN)NC(=O)CNC(=O)CNC(=O)CNC(=O)[C@H](CCCCN)NC(=O)CNC(=O)CNC(=O)[C@H](CCCCN)NC(=O)CNC(=O)CNC(=O)CNC(=O)[C@H](CCCCN)NC(=O)CNC(=O)CNC(=O)[C@H](CCCCN)NC(=O)[C@H](CO)NC(=O)[C@H](Cc1ccc(O)cc1)NC(=O)CNC(=O)CNC(=O)CN)C(=O)NCC(=O)O | – | Aβ(1-40) fibrils | 1 h, room temperature | baseline: 1 M NaCl over PBS | binding ratio | 0.07 |
